Measured values pooled from the literature.
Every numbered part comes from another study and shows a few of its results, in no order.

Sample 1
Target: Protein max, full length (MAX, Homo sapiens, UniProt P61244-2, residues 1-151)
Technique: protein-binding microarray
Form: double-stranded DNA, one strand shown
Matrix: in vitro
Concentration: not given
Notes: k-mer, scored over probes, only values ≥0.25
Reading: higher = stronger binding
Quantity: E-score
Strand = GACATGCA; value = 0.275
Strand = ACTAAGCA; value = 0.282
Strand = CGTGTCTA; value = 0.366
Strand = CCGCATGC; value = 0.438
Strand = ACATGGAG; value = 0.308
Strand = CACGTGAA; value = 0.485
Strand = CATGGTGC; value = 0.381
Strand = CCATGCCG; value = 0.404
Strand = ATCGCATG; value = 0.402
Strand = CCTCACGC; value = 0.33
Strand = CGTGTTAA; value = 0.322
Strand = GTGGCCAC; value = 0.392
Strand = CCATGTGA; value = 0.481

Sample 2
Target: Sal-like protein 4, full length isoform B (SALL4, Homo sapiens, UniProt Q9UJQ4-2, residues 1-616)
Technique: universal PBM
Form: double-stranded DNA, one strand shown
Matrix: in vitro
Concentration: not given
Notes: 8-mer, flanks averaged, mean of replicates
Reading: higher = stronger binding
Quantity: E-score
Strand = AAATACCC; value = -0.0216
Strand = CCTGTTGA; value = -0.0334
Strand = ACCAGGTG; value = -0.283
Strand = GATGGGCA; value = -0.00132
Strand = ACATCTCC; value = 0.0267
Strand = GAGTTCGA; value = 0.00516
Strand = CCGGTAGA; value = -0.0998
Strand = CTCATTCC; value = 0.0421
Strand = AAAGGCTG; value = -0.178
Strand = AAGTCCCG; value = -0.217
Strand = GCTACACC; value = -0.122
Strand = GCTAATCA; value = 0.0888
Strand = TCAATCCA; value = -0.0136
Strand = CCTCGTCG; value = -0.139
Strand = ATTACGAG; value = 0.198

Sample 3
Target: Interferon regulatory factor 5, full length, phosphomimetic (IRF5, Homo sapiens, UniProt Q13568-2, residues 1-514, S451D/S453D/S456D/S462D)
Technique: protein-binding microarray
Form: double-stranded DNA, one strand shown
Matrix: in vitro
Concentration: 940 nM top
Notes: 60-bp whole probe
Together with: salmon DNA 0.4 mg/ml
Reference: random background probes
Reading: higher = stronger binding
Quantity: fitted relative affinity
All sequences stand within: GCCTAGCAC … GTCTTGATTCGCTTGACGCTGCTG
Strand = TTCGCTTTCTTTAACTCATTGTGCTAG; value = 1.91 z-score
Strand = TTAGGACTGGACTTTCCGTTAGTGCTA; value = -0.39 z-score
Strand = AGACAGAAGGGAAACAGGTTGGTGCTA; value = -0.151 z-score
Strand = ATAACTTTTTTTTTTCCCTGGTGCTAG; value = 0.93 z-score
Strand = TTAGAATTGGGGACTGGATTAGTGCTA; value = -0.0143 z-score
Strand = TACGGACTGGACTATCGGGACGTGCTA; value = -0.446 z-score
Strand = TCAAAGCTCCTATCTTATACTGTGCTA; value = 0.104 z-score
Strand = TTAGGACTGCTACTGCTATAGTGCTAG; value = -0.391 z-score
Strand = GAAGGTTTCCTACTGCTGACGTGCTAG; value = 0.375 z-score
Strand = AACGGTTTCGACTATCGGGACGTGCTA; value = 8.65 z-score
Strand = GACGGTCTCCTTCTCCTGGCGTGCTAG; value = 0.756 z-score
Strand = GACGGTCTCAGTATCGGGACGTGCTAG; value = 2.43 z-score
Strand = GACGGTTTCGGGTATCGGGCCGTGCTA; value = 9.37 z-score
Strand = TATGGTATTTTTTTGTAATCGTGCTAG; value = 1.07 z-score
Strand = GACGATTTCCGTTTCGAGACGTGCTAG; value = 2.37 z-score
Strand = TCAACTCTGGAGGTTGAGACTGTGCTA; value = -0.175 z-score
Strand = TTAGGTATCGACTTCCGGTTAGTGCTA; value = 6.06 z-score

Further values, each from its own experiment
Molecule = PhoQ, residues 284 288 289 292 302 303 SCEHLI; target = PhoP, residues 12 14 15 18 19 IQFRS (Escherichia coli, UniProt P23836); assay = Sort-seq, item: YFP reporter; system = E. coli; conditions = PhoQ-PhoP variant library, together with: 10 µM Mg2+; scale = reference: high Mg2+ state, higher = stronger signaling; quantity = fold induction; value = 1.52

For quick reference, copied from above (sample 3):
Strand = TTAGGACTGGACTTTCCGTTAGTGCTA; value = -0.39 z-score
Strand = TACGGACTGGACTATCGGGACGTGCTA; value = -0.446 z-score
Strand = TCAAAGCTCCTATCTTATACTGTGCTA; value = 0.104 z-score
Strand = TTAGGTATCGACTTCCGGTTAGTGCTA; value = 6.06 z-score
